Assay results of several laboratories.
Each numbered part is a random draw from the data of one study; scales do not carry over between parts. Positions count from the first letter of the parent shown.

Block 1 — method: universal PBM; form: double-stranded DNA, one strand shown; matrix: in vitro; concentration: 600 nM; reading: higher = stronger binding; endpoint: E-score
Target: Sal-like protein 4, full length isoform A (SALL4, Homo sapiens, UniProt Q9UJQ4, residues 1-1053)
UniProt Q9UJQ4, sequence (whole entry, looked up): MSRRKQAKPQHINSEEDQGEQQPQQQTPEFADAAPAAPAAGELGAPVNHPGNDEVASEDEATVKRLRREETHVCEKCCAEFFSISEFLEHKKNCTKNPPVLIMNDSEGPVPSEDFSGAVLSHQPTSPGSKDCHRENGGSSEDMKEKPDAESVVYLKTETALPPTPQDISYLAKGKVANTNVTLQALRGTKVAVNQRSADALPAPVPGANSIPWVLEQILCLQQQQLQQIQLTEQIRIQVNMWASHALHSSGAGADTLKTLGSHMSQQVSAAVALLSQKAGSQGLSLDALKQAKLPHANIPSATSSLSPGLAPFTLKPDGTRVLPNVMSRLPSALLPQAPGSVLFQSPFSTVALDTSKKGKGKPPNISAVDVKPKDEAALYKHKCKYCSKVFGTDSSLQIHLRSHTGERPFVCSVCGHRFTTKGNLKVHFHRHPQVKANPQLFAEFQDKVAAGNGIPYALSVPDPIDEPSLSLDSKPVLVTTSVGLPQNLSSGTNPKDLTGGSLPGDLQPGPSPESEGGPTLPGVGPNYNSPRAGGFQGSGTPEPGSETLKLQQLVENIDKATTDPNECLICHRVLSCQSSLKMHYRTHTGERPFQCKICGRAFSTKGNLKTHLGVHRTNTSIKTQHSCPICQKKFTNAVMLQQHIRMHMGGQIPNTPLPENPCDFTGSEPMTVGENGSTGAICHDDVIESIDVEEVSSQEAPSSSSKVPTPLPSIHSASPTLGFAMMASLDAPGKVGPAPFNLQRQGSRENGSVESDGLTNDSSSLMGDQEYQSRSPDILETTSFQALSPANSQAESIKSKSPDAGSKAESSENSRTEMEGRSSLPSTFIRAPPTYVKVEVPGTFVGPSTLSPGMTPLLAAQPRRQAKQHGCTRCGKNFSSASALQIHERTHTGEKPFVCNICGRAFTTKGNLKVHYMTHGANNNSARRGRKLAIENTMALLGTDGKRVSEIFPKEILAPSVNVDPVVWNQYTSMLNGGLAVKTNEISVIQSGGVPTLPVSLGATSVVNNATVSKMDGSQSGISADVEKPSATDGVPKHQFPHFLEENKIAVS
Setting: 8-mer, flanks averaged, mean of replicates
CGGCGTCC: -0.405
CTTCTCAC: 0.00372
CACCGTAC: -0.148
CATGTATC: 0.224
CCGTAAGC: -0.184
AAGTATGA: 0.299
CCCGCAGG: -0.43
AACTCAGG: -0.0759
ATCTCCGG: -0.0165
ACACACCT: 0.0797
AATTAGGG: 0.00836
ACATACTA: 0.0536
ATATCCTA: 0.183
GTGTAGTA: 0.0727
AGCGCGCC: -0.34
ATTGTTCA: 0.213
ATTTTTTA: 0.409
GCATGCAA: 0.0484
CGAACCCG: -0.36
CGCCCAGA: -0.248
CCTGAAAG: 0.0456
GGCTCAGA: -0.131
CTGGGTCC: -0.305
CAGCGTGG: -0.191
GATGTTGA: -0.0135

Block 2 — target: CEP164, C-terminal peptide (human); method: DHFR complementation, deep sequencing; matrix: yeast; baseline: wild type; reading: higher = weaker binding; endpoint: binding free energy change
Setting: single substitutions, model-inferred values
Starting sequence: PDZK1, PDZ domain 2 (human); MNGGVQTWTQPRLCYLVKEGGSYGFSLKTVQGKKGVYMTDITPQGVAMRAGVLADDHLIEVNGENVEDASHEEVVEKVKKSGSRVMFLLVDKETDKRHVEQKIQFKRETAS; partner HNRVKVYRF
T42K: 0.314 kcal/mol
G51R: 1.38 kcal/mol
S70Y: 0.0793 kcal/mol
C14S: 0.555 kcal/mol
V36M: -0.304 kcal/mol
V78A: 1.62 kcal/mol
V66M: 0.222 kcal/mol
R49T: 0.322 kcal/mol
V30L: 0.425 kcal/mol
E73P: 0.947 kcal/mol
I103T: -0.0998 kcal/mol
V75W: 2.82 kcal/mol
R49P: 1.06 kcal/mol
D40L: 0.874 kcal/mol
V74A: 0.264 kcal/mol
Q10E: -0.0405 kcal/mol
L89T: 1.02 kcal/mol

Block 3 — method: protein-binding microarray; form: double-stranded DNA, one strand shown; matrix: in vitro; concentration: not given; reading: higher = stronger binding; endpoint: E-score
Target: Protein C-ets-1 (ETS1, Homo sapiens, UniProt P14921, residues 1-441, full length assumed)
Setting: k-mer, scored over probes, only values ≥0.25
Residues (chain): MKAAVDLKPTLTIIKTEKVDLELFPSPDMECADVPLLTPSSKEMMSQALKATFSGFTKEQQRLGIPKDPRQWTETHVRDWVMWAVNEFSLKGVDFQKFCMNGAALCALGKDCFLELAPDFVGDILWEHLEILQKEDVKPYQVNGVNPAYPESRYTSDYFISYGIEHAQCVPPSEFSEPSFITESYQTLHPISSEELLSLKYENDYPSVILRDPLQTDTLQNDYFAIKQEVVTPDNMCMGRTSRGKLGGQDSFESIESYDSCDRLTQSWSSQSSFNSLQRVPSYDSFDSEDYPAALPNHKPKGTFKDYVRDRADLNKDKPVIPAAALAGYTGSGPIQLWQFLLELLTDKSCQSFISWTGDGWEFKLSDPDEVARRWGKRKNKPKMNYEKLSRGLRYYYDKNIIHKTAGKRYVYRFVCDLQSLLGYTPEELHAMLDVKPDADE
AGCGTCCG: 0.326
GGCAGGAA: 0.434
GTACGGAA: 0.353
CCACCACA: 0.278
ACGGGAAG: 0.406
AGGAAGTC: 0.455
AGGAAACA: 0.408
CGGCAGGA: 0.303
GGATGTGA: 0.449
GGAAGTCC: 0.434
AGCATCCT: 0.407
GGGAGGAA: 0.385
AGATATCC: 0.336
CTTCCTGA: 0.425
GTTGCGGA: 0.315
CTTCCCGC: 0.401
GGATACGA: 0.265

Block 4 — method: DHFR PCA, deep sequencing; matrix: yeast; together with: (+)-ABA 710 µM; baseline: wild-type fitted maximum; reading: higher = stronger binding; endpoint: relative binding score
Target: ABI1, truncated, D143A, DHFR fusion (Arabidopsis thaliana)
Setting: methotrexate growth selection, single substitutions
Starting sequence: PYL1, truncated, DHFR fusion (Arabidopsis thaliana); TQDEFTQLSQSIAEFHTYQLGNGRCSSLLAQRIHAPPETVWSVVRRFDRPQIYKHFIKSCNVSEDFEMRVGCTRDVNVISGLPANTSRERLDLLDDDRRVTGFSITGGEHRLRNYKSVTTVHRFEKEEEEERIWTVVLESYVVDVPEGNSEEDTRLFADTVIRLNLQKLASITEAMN; partner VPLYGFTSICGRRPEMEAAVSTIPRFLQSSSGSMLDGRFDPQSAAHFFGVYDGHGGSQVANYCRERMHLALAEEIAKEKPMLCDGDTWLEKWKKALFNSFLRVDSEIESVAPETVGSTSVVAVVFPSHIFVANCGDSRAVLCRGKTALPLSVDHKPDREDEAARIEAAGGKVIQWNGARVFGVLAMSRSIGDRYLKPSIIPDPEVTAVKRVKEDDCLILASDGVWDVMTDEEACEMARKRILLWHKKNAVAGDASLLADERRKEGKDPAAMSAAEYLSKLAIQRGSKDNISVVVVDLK
Q19H: 103%
V137H: -19.5%
L82D: -3.62%
M176G: 104%
A158Q: 15.5%
S140V: 6.45%
V118W: 41.9%
V121C: 102%
L169S: -1.45%
R98G: 97%
S11G: 103%
E174Y: 88.5%
D97S: 116%
E151Q: 97.2%
L93R: 105%
E14K: 90.3%
S9I: 94.7%
L93Q: 110%

Block 5 — method: RNA Bind-n-Seq; form: RNA; matrix: in vitro; concentration: 365 nM; baseline: no-protein control; reading: higher = stronger binding; endpoint: RBNS enrichment (R)
Target: RNA binding protein fox-1 homolog 2, RRM domain, GST-SBP tag (RBFOX2, Homo sapiens, UniProt O43251-10, residues 100-194)
Setting: natural RNA segment, single round, ends assumed
Constant ends, left off below: GGGAGUUCUACAGUCCGACGAUC … UGGAAUUCUCGGGUGCCAA
Construct (chain): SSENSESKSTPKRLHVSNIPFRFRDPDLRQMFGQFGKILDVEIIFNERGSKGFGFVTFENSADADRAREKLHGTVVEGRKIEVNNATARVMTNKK
CUCUUGCACUGUGUCCAUCACCACUUGGUGAGGACUCUUAAACUCUCUCCUCAUGUGCUUAUACCCUGUUCCAUGAAAAUAAAUGAGACCAUGAUUUUCCUUCAUGAUGU: 0.374
UAUAGUCAAGUGUAUUAUGUAAUCUCUAUUUAGAACAGUUUCCCAAAGGAAUGUGAUUGGAUUUACUGGUUGGUUAAUUUCUUGUGAAAUAUUGUCAUAAUAGAAGCACA: 1.67
GUACCUGGUUUUAGCCACAGCCACCUCCUUGUAUGUUACCUUUCAGCUCUGGCCAAGAGUGGGACAGGGUUUUAACCACAAAUAGGAGCAGCAUGCAAUUCCUAGUGACU: 4.06
UAUGUAGAAUAACAUGAAAAAUUGGAGGUGCUGGUGGUAUGGCUGACCCUGUUUCAGAAGCAGGAUAGUAUAAAAGCAUCAGCCUAAGAAUGGCACUCCCACUAACUAGC: 0.265
GUUAUGGUCAGAAGGCCUCUUCUCCCUUCCUCCCUCACUCCCUCUCCUCCUAGCUUUCCCCACAGAGAAUGUUAGACCAGUAUGGCUUCUUGCCUUGAUCCUGUUGUGGC: 0.799
GUAUCAAUUUGUUUGCAGUUAAUAUCAGCUUUGAUAGUCAUGUACCUUGACAUAGUGAAGGACACUAUAAUGUAUGAGUUGUUGUCAGUUUUUAUUUAUUUUUUGUUAGG: 1.12
GAUUGUUAGAAAGUGAACUUUGCUCAACCCAGACCCCGGCAGCCCAGGCUGGACCAAGGGUGGGCCUGGCCACCUUCUCUCACUUUGCUGGGGUCUCCUGCUUCAAGCAG: 0.396
UCUGGCUUUGAAAGGGCCCGAGUGCUCCCAGUGUAGCUUCGUCACAUCGUCACGAGCCCCUGUGGUCAUGGGCGACCUCACACCUCCCUCCCUGAGUUCUGCUCUGACAU: 0.626
AGAGUCCUGGCUGCUGUUGCCAUCUGAAUGCGCCCUUCCCUUUCAGGUUGACCAGCAGUGGCCUUACCUGGCCUCUCAGGUGGAUGGAGGCUGUUCUCAUCUGGGGCUGU: 0.457
AAAUUAUCACACUUGCACAUGAAGAUAAAACAUGAAGUAAUUGUGCUGGUAGCCUUUUGGGAAUUGGUUUGGUUUAUUGUAUAUGUACCAUUUUGCUACCAGUUUCAUUG: 4.99
CGGGCAGUAAGUAUUGUAACGCCGGCCUCUUUUUGGGUCAUUUACUAGAUUAGGACUAUUACAUCCAAGGCACUGGGGGAUUCUGGUGGGCUCCAAAUUAGCUUUACUGA: 0.505
CUUGUAUAAAAAGUUGCCAUCUGCCUUAUAGACAAAUGUAGAGAAUUGAUGUUCUUGCUUUGUGUUGUGUUCUGGUAAAGCUUUAAGUGAGUGUCUUACCCCUUUCCUAU: 0.421

Block 6 — target: CCND2, cyclin fold, Cln2 fusion (human); method: yeast growth competition, sequencing; matrix: yeast; setting: weak parent motif; baseline: not given; reading: higher = stronger binding; endpoint: normalised enrichment score
Starting sequence: CDKN1A docking peptide (human); SKACRRLFGPVDS; partner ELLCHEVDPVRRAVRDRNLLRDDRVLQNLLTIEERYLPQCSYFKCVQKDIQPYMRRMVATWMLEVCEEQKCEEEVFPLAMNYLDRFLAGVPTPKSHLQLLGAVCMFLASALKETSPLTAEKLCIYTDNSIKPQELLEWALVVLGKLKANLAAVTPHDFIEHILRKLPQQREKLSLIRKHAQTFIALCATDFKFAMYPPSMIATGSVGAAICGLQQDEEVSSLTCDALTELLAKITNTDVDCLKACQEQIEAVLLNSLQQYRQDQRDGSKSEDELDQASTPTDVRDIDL
F8H: 0.284
G9L: 0.371
C4L: -0.134
V11Y: 0.586
K2P: 0.957
A3P: 0.445
K2Y: 0.556
K2L: -0.008
V11T: 0.701
R5S: -0.251
F8S: 0.31
L7P: 0.0804
C4Y: -0.513
L7D: 0.32
C4H: 0.121
K2T: 0.746
K2G: 0.538
C4G: 0.078
A3E: 0.297
V11I: 0.674
A3Q: -0.0887
G9Y: 0.593
D12Y: 0.0946
G9S: 0.192
P10F: -0.481

Block 7 — method: Sort-seq; refers to: YFP reporter; matrix: E. coli; setting: PhoQ-PhoP variant library; together with: 10 µM Mg2+; baseline: high Mg2+ state; reading: higher = stronger signaling; endpoint: fold induction
Molecule: PhoQ, residues 284 288 289 292 302 303 TLMATV
PhoP, residues 12 14 15 18 19 SFCSL (Escherichia coli, UniProt P23836): 4.64
PhoP, residues 12 14 15 18 19 AYFRS (Escherichia coli, UniProt P23836): 13.5
PhoP, residues 12 14 15 18 19 HHYTI (Escherichia coli, UniProt P23836): 18.2

Block 8 — target: FOSL1, bZIP domain (human); method: DHFR protein complementation; matrix: yeast; baseline: wild-type JUN-FOS pair; reading: higher = stronger binding; endpoint: binding fitness
Setting: single substitutions, most at no-binding floor
Starting sequence: JUN, bZIP domain (human); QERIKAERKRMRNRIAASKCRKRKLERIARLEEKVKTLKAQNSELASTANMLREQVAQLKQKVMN; partner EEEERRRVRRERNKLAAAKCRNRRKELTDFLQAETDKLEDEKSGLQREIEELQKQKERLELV
A46Y: -0.633 natural log
A49C: -0.585 natural log
L59P: -1.46 natural log
L31M: -0.263 natural log
K34N: -0.603 natural log
T48Y: -0.301 natural log
R53G: -1.25 natural log
L59R: -1.37 natural log
L31Q: -0.812 natural log
A57D: -0.452 natural log
L38C: -1.45 natural log
Q41A: -0.597 natural log
R30E: -0.0653 natural log
Q55Y: -0.644 natural log
K39G: -1.11 natural log
V56S: -1.24 natural log
S43Y: -0.542 natural log
I28A: -0.683 natural log
A46W: -0.733 natural log
L52V: -1.22 natural log
M51A: -0.286 natural log
L45N: -1.46 natural log
A46S: -0.488 natural log
E32S: -0.242 natural log

Repeated from above (block 6):
V11Y: 0.586
G9Y: 0.593
K2Y: 0.556
A3E: 0.297
C4G: 0.078
P10F: -0.481
V11T: 0.701
K2L: -0.008
C4H: 0.121
F8S: 0.31
R5S: -0.251
D12Y: 0.0946
G9L: 0.371
G9S: 0.192
F8H: 0.284
K2P: 0.957
K2T: 0.746
C4Y: -0.513
A3Q: -0.0887
L7D: 0.32
L7P: 0.0804
A3P: 0.445
